Experimental data from different studies.
Protocols differ between the studies behind these lines. Numbers after ± are the reported error.
B1: LMNA 389-572 (Homo sapiens, UniProt P02545-2); sequence looked up; chain LSPSPTSQRSRGRASSHSSQTQGGGSVTKKRKLESTESRSSFSQHARTSGRVAVEEVDEEGKFVRLRNKSNEDQSMGNWQIKRQNGDDPLLTYRFPPKFTLKAGQVVTIWAAGAGATHSPPTDLVWKAQNTWGCGNSLRTALINSTGEEVAMRKLVRSVTVVEDDEDEDGDDLLHHHHVSGSRR
B2: SPTB 1898-2083 (Homo sapiens, UniProt P11277); sequence looked up; chain QLVDTADKFRFFSMARDLLSWMESIIRQIETQERPRDVSSVELLMKYHQGINAEIETRSKNFSACLELGESLLQRQHQASEEIREKLQQVMSRRKEMNEKWEARWERLRMLLEVCQFSRDASVAEAWLIAQEPYLASGDFGHTVDSVEKLIKRHEAFEKSTASWAERFAALEKPTTLELKERQIAE
B3: YWHAH (Homo sapiens, UniProt Q04917); sequence looked up; chain MGDREQLLQRARLAEQAERYDDMASAMKAVTELNEPLSNEDRNLLSVAYKNVVGARRSSWRVISSIEQKTMADGNEKKLEKVKAYREKIEKELETVCNDVLSLLDKFLIKNCNDFQYESKVFYLKMKGDYYRYLAEVASGEKKNSVVEASEAAYKEAFEISKEQMQPTHPIRLGLALNFSVFYYEIQNAPEQACLLAKQAFDDAIAELDTLNEDSYKDSTLIMQLLRDNLTLWTSDQQDEEAGEGN
B4: designed binder (Homo sapiens); chain MASAARLTMMWEEVTCPICLDPFVEPVSIECGHSFCQECISQVGKGGGSVCPVCRQRFLLKNLRPNRQLANMVNNLKEISQEAREGTQGERCAVHGERLHLFCEKDGKALCWVCAQSRKHRDHAMVPLEEAAQEYQEKLQVALGELRRKQELAEKLEVEIAIKRADWKKTVETQKSRIHAEFVQQKNFLVEEEQRQLQELEKDEREQLRILGEKEAKLAQQSQALQELISELDRRCHSSALELLQEVIIVLERSESWNLKDLDITSPELRSVCHVPGLKKMLRTCAGGGGSGGGGSGGGGSRLDAPSQIEVKDVTDTTALITWGDPYSYIVRFELTYGIKDVPGDRTTISLRYYYHYYSIGNLKPDTEYEVSLISYSTYYDYRYSSNPAKITFKTGL
B5: 6-pyruvoyl tetrahydropterin synthase (human); sequence looked up; chain MSTEGGGRRCQAQVSRRISFSASHRLYSKFLSDEENLKLFGKCNNPNGHGHNYKVVVTVHGEIDPATGMVMNLADLKKYMEEAIMQPLDHKNLDMDVPYFADVVSTTENVAVYIWDNLQKVLPVGVLYKVKVYETDNNIVVYKGE
B6: Pigr 19-135 (Mus musculus, UniProt O70570); chain KSPIFGPQEVSSIEGDSVSITCYYPDTSVNRHTRKYWCRQGASGMCTTLISSNGYLSKEYSGRANLINFPENNTFVINIEQLTQDDTGSYKCGLGTSNRGLSFDVSLEVSQVPELPS
B7: UHRF1 RING-UBL 675-793 (UniProt Q96T88); chain SLTAQQSSLIREDKSNAKLWNEVLASLKDRPASGSPFQLFLSKVEETFQCICCQELVFRPITTVCQHNVCKDCLDRSFRAQVFSCPACRYDLGRSYAMQVNQPLQTVLNQLFPGYGNGRGGSSGGSSGGSSGGSSMWIQVRTMDGRQTHTVDSLSRLTKVEELRRKIQELFHVEPGLQRLFYRGKQMEDGHTLFDYEVRLNDTIQLLVRQS
B8: RPRD1A 134-312 (Homo sapiens, UniProt Q96P16); chain KPRKRTYEQIKVDENENCSSLGSPSEPPQTLDLVRALQDLENAASGDAAVHQRIASLPVEVQEVSLLDKITDKESGERLSKMVEDACMLLADYNGRLAAEIDDRKQLTRMLADFLRCQKEALAEKEHKLEEYKRKLARVSLVRKELRSRIQSLPDLSRLPNVTGSHMHLPFAGDIYSED
B9: ATG9 1-255 (Saccharomyces cerevisiae, UniProt Q12142); sequence looked up; chain MERDEYQLPNSHGKNTFLSRIFGLQSDEVNPSLNSQEMSNFPLPDIERGSSLLHSTNDSREDVDENDLRVPESDQGTSTEEEDEVDEEQVQAYAPQISDGLDGDHQLNSVTSKENVLETEKSNLERLVEGSTDDSVPKVGQLSSEEEEDNEFINNDGFDDDTPLFQKSKIHEFSSKKSNTIEDGKRPLFFRHILQNNRPQRDTQKLFTSSNAIHHDKDKSANNGPRNINGNQKHGTKYFGSATQPRFTGSPLNNT
B10: VWF 1484-1677 (Homo sapiens, UniProt P04275); sequence looked up; chain GVSTLGPKRNSMVLDVAFVLEGSDKIGEADFNRSKEFMEEVIQRMDVGQDSIHVTVLQYSYMVTVEYPFSEAQSKGDILQRVREIRYQGGNRTNTGLALRYLSDHSFLVSQGDREQAPNLVYMVTGNPASDEIKRLPGDIQVVPIGVGPNANVQELERIGWPNAPILIQDFETLPREAPDLVLQRCCSGEGLQI
B11: Creb1 bZIP 270-341 C300S/C310S/C337S (Rattus norvegicus, UniProt P15337-1); sequence looked up; chain SSPALPTQPAEEAARKREVRLMKNREAARESRRKKKEYVKSLENRVAVLENQNKTLIEELKALKDLYSHKSD
B12: RRP1B 657-758 (Homo sapiens, UniProt Q14684); chain RRAKSSTATHPPGPAVQLNKTPSSSKKVTFGLNRNMTAEFKKTDKSILVSPTGPSRVAFDPEQKPLHGVLKTPTSSPASSPLVAKKPLTTTPRRRPRAMDFF
B13: human KIF2C; sequence looked up; chain AMDSSLQARLFPGLAIKIQRSNGLIHSANVRTVNLEKSCVSVEWAEGGATKGKEIDFDDVAAINPELLQLLPLHPKDNLPLQENVTIQKQKRRSVNSKIPAPKESLRSRSTRMSTVSELRITAQENDMEVELPAAANSRKQFSVPPAPTRPSCPAVAEIPLRMVSEEMEEQVHSIRGSSSANPVNSVRRKSCLVKEVEKMKNKREEKKAQNSEMRMKRAQEYDSSFPNWEFARMIKEFRATLECHPLTMTDPIEEHRICVCVRKRPLNKQELAKKEIDVISIPSKCLLLVHEPKLKVDLTKYLENQAFCFDFAFDETASNEVVYRFTARPLVQTIFEGGKATCFAYGQTGSGKTHTMGGDLSGKAQNASKGIYAMASRDVFLLKNQPCYRKLGLEVYVTFFEIYNGKLFDLLNKKAKLRVLEDGKQQVQVVGLQEHLVNSADDVIKMIDMGSACRTSGQTFANSNSSRSHACFQIILRAKGRMHGKFSLVDLAGNERGADTSSADRQTRMEGAEINKSLLALKECIRALGQNKAHTPFRESKLTQVLRDSFIGENSRTCMIATISPGISSCEYTLNTLRYADRVKELSPHSGPSGEQLIQMETEEMEACSNGALIPGNLSKEEEELSSQMSSFNEAMTQIRELEEKAMEELKEIIQQGPDWLELSEMTEQPDYDLETFVNKAESALAQQAKHFSALRDVIKALRLAMQLEEQASRQISSKKRPQ
B14: Cacng2 203-323 (Mus musculus, UniProt O88602); chain DRHKQLRATARATDYLQASAITRIPSYRYRYQRRSRSSSRSTEPSHSRDASPVGVKGFNTLPSTEISMYTLSRDPLKAATTPTATYNSDRDNSFLQVHNCIQKDSKDSLHANTANRRTTPV
Chain of UniProt Q14669 (whole entry, looked up): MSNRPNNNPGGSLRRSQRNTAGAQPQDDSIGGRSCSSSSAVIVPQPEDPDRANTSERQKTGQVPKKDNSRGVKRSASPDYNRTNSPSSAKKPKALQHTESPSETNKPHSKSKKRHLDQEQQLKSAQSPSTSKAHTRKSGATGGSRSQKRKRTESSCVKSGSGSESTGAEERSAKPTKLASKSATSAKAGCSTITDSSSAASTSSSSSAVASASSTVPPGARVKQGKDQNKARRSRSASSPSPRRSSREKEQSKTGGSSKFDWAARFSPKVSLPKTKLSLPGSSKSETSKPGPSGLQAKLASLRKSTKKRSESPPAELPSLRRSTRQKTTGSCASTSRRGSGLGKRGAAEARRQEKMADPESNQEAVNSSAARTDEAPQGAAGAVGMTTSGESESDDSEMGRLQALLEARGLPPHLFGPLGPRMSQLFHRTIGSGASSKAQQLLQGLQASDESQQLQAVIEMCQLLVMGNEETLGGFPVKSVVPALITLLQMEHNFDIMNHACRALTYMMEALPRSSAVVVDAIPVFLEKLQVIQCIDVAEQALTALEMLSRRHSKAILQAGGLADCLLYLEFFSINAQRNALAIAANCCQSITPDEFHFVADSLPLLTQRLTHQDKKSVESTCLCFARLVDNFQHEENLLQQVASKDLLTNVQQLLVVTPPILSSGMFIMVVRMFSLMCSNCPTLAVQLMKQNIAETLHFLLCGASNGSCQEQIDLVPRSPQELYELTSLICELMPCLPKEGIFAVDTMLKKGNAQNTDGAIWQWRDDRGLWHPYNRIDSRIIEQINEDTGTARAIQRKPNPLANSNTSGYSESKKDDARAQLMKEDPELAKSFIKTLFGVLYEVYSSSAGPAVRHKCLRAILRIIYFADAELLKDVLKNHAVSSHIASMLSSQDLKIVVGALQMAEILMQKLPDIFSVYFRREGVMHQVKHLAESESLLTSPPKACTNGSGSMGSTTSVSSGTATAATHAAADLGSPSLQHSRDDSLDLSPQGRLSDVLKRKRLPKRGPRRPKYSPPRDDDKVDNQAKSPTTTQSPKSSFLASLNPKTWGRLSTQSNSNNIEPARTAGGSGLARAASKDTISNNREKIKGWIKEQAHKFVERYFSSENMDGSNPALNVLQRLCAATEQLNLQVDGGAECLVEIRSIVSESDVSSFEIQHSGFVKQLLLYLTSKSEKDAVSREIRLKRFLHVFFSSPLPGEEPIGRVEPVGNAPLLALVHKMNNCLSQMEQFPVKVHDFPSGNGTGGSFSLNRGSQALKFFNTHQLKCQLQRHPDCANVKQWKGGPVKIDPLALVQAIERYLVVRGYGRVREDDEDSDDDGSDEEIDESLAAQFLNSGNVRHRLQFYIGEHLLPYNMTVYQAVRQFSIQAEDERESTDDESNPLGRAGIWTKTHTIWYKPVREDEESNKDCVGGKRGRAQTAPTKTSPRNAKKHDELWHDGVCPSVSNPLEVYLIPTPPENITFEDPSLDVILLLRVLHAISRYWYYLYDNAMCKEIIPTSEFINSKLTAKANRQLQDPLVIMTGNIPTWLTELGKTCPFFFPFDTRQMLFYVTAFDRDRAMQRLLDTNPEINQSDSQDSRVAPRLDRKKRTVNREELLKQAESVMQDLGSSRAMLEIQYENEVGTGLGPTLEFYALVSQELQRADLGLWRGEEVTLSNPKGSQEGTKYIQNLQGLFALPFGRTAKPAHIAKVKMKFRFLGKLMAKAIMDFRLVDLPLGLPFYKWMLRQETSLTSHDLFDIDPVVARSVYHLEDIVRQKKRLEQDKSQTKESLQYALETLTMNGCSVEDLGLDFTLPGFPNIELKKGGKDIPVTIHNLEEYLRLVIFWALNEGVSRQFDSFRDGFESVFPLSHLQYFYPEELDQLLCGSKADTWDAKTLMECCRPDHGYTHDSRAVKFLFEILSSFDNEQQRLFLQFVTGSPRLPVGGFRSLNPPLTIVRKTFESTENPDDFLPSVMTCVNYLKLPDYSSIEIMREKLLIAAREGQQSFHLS
Chain of UniProt Q23985 (whole entry, looked up): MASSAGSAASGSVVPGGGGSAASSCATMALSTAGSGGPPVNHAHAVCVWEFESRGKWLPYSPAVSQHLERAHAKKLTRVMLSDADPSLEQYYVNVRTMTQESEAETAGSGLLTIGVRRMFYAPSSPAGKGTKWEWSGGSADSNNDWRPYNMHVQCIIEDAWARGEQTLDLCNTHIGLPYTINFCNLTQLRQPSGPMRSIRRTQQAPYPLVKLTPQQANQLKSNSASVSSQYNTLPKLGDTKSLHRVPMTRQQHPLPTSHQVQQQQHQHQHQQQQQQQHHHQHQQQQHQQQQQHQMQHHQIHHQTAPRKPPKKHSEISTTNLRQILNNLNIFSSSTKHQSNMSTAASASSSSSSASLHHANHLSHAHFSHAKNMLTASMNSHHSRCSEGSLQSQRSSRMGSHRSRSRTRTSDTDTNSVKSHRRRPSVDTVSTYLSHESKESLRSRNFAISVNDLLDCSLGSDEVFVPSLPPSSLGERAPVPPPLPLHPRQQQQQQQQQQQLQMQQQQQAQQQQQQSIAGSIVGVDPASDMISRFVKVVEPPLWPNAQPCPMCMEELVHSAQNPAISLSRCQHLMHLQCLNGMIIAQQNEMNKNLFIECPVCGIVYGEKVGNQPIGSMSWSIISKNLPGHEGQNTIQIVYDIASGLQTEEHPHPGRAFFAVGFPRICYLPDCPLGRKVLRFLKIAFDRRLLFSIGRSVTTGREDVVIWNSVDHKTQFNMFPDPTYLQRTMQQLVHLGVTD
Chain of UniProt P08069 (whole entry, looked up): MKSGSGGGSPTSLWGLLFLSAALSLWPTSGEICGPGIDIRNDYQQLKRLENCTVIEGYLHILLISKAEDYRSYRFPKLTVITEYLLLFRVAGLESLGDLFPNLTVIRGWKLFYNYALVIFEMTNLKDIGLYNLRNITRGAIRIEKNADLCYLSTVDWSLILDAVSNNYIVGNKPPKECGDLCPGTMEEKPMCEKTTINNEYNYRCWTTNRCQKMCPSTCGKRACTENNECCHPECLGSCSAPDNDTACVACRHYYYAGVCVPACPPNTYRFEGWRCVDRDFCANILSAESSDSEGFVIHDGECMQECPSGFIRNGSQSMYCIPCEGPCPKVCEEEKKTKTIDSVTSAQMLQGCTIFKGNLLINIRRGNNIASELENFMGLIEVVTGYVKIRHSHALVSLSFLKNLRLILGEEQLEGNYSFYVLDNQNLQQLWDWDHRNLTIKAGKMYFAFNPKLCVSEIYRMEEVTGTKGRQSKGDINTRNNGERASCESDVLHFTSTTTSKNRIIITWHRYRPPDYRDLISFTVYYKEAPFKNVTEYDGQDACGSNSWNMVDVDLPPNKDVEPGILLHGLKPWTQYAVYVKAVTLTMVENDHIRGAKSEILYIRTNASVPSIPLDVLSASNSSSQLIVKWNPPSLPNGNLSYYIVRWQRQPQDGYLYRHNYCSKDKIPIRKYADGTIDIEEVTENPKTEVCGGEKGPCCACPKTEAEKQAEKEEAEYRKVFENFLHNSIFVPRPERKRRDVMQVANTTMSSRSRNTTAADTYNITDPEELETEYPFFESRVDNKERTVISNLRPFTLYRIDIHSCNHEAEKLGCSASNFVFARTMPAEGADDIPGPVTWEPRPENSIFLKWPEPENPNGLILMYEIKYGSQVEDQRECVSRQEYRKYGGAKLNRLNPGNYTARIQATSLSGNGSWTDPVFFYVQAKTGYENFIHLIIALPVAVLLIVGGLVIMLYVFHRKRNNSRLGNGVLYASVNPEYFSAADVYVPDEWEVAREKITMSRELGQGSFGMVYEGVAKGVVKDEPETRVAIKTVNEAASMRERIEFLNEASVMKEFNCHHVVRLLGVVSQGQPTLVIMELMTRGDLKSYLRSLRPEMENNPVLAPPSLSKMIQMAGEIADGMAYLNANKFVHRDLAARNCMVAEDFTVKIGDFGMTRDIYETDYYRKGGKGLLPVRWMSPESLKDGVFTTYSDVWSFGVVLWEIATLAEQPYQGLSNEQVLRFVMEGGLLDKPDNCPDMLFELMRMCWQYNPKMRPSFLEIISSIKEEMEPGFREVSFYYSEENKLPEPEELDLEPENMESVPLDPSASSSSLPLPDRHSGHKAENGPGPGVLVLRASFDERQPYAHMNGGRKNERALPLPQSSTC
Chain of UniProt O75530 (whole entry, looked up): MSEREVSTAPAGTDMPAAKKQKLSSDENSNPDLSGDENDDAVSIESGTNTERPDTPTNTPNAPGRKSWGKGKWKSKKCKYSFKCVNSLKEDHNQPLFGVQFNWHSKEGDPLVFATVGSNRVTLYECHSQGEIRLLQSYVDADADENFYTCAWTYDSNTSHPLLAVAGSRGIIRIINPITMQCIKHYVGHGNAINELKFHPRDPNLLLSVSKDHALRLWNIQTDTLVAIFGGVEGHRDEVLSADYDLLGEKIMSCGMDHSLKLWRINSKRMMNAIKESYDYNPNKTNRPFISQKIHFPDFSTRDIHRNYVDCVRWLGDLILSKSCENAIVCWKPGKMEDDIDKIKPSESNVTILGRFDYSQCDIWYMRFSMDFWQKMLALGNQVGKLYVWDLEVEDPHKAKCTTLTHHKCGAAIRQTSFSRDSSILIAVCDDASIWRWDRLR
Chain of UniProt P84090 (whole entry, unmodified, looked up): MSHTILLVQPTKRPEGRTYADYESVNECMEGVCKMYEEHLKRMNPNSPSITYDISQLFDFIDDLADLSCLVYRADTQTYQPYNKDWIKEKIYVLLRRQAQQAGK
Chain of UniProt P29055 (whole entry, looked up): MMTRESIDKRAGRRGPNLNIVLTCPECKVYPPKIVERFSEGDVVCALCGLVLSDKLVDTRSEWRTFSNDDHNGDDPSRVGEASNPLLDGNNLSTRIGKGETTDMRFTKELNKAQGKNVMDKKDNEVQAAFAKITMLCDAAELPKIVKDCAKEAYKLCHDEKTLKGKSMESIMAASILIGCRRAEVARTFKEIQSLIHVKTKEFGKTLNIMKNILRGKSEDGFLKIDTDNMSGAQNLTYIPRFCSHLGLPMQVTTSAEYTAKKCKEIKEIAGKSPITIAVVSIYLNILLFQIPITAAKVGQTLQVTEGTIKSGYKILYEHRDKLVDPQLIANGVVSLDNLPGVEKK

| Substance | tested on | assay | test system | conditions | scale | endpoint | result |
| --- | --- | --- | --- | --- | --- | --- | --- |
| IERRRRFNINDRIKELG (TFEB residues 243-259) | TRIP12 (Homo sapiens, UniProt Q14669) | MST | peptide, 293T, lysate | GFP-tagged |  | Kd | 0.0792 µM |
| B1 (LMNA 389-572) | SREBF1 227-487 (Homo sapiens, UniProt P36956) | ITC |  |  |  | Kd | 0.063 µM |
| B2 (SPTB 1898-2083) | SPTAN1 1-359 (Homo sapiens, UniProt Q13813) | ITC |  | pH 7.4, NaCl 150 mM |  | Kd | 0.0069 µM |
| B3 (YWHAH) | NEDD4L full length isoform 5, pS342/pS428 (Homo sapiens, UniProt Q96PU5-5) | AUC |  | without Ca2+ |  | Kd | 0.003 µM |
| B4 (designed binder) | EED (Homo sapiens, UniProt O75530) | BLI | designed binder |  |  | Kd | > 3.8 µM |
| alirocumab, partial Asn deamidation | PCSK9 (Homo sapiens, UniProt Q8NBP7) | SPR |  |  |  | Kd | 0.00062 µM |
| KLLMIIHDRREFAKFEKEKMNAKWDTQENPIYKSPINNFKNPNYGRKAGL (ITGB1 752-801 (Homo sapiens, UniProt P05556-5); sequence looked up) | Tln2 312-408 Q407K (Mus musculus, UniProt Q71LX4) | NMR titration |  |  |  | Kd | 39 µM |
| B5 | PP6C (human) | co-immunoprecipitation, IP-MS | CYB5R4 knockout cells | concentration not given | reference: CYB5R4 knockout over parental | log2 fold change | -1.93 |
| TLN1 head domain | ITGB3 residues 720-750, FAM label | fluorescence polarization |  |  |  | Kd | 10 µM |
| B6 (Pigr 19-135) | Igha/Jchain CH2-CH3 with J chain P136A/Y135A (Mus musculus) | SPR |  |  |  | Kd | 1.73 µM |
| B7 (UHRF1 RING-UBL 675-793) | UBE2D1 fragment (Homo sapiens) | ITC | designed binder |  |  | Kd | 3.1 µM |
| PRTARHAPAVRKFSPDLKLLKDVKISVSFTE (DGCR8(96-126), SUMO-tagged) | Enhancer of rudimentary homolog (Homo sapiens, UniProt P84090, M35A) | binding, isothermal titration calorimetry | peptide | 293 K, added: DGCR8 peptide, SUMO-tagged |  | Kd | 21.3 ± 4.32 µM |
| PPEF1 (Homo sapiens, UniProt O14829) | FGB (Homo sapiens, UniProt P02675) | cross-linking MS |  | added: DSSO |  | cross-linked residues | K439 to K374 |
| B8 (RPRD1A 134-312) | RPAP2 (Homo sapiens, UniProt Q8IXW5) | ITC |  | 25 °C |  | Kd | > 1000 µM |
| Notch ankyrin domain R85A/R107A (Drosophila) | dx (Drosophila melanogaster, UniProt Q23985) | AUC |  |  |  | Kd | 56.7 µM |
| B9 (ATG9 1-255) | ATG23 A34E (UniProt Q06671) | BLI |  |  |  | Kd | 11 µM |

| Substance | tested on | assay | test system | conditions | scale | endpoint | result |
| --- | --- | --- | --- | --- | --- | --- | --- |
| FGA (Homo sapiens, UniProt P02671) | DNAJA1 (Homo sapiens, UniProt P31689) | cross-linking MS |  | added: DSSO |  | cross-linked residues | K437 to K205 |
| human ME2 G124S mutant |  | enzyme activity, NADH absorbance |  | without fumarate, added: L-malate varied |  | Hill coefficient | 1 ± 0.01 |
| HEKHHSHREF (HTN1 residues 15-24) | TMEM97 (Homo sapiens, UniProt Q5BJF2) | SPR | peptide |  |  | Kd | > 50 µM |
| colistin | Pseudomonas aeruginosa |  | clinical isolate RKI 484/12 |  |  | MIC | ≤ 1 mg/L |
| B10 (VWF 1484-1677) | VWF A1 domain | MST |  |  |  | Kd | 0.0628 µM |
| B11 | Creb1 bZIP-LZ 270-341 C300S (Rattus norvegicus, UniProt P15337-1) | smFRET |  |  |  | Kd | 0.033 µM |
| SAAAAGDDDDLYN (CDC48A 797-809 (Arabidopsis thaliana)) | PUX2 157-273 (Arabidopsis thaliana, UniProt Q9ZU93) | ITC | peptide | 25 °C |  | Kd | 17.1 ± 0.9 µM |
| CTCAGGAATTCCTACAAAGTAATGTGGAGCTCAGTTCAAGTCAATCGGTCC (dsDNA; 5'-amino-C6 primer) | SUA7 full length assumed (Saccharomyces cerevisiae, UniProt P29055) | array | double-stranded DNA, one strand shown | TFIIB alone |  | Kd | 0.00145 ± 0.00063 µM |
| PARRSEELVAEAHNLCTLLENAIQDTVREQDQSFTALDWSWLQTE (IKBKB 701-745 K703R/K704R (UniProt O14920); N-terminal FITC; sequence looked up) | NEMO 44-113 (Homo sapiens) | fluorescence polarisation | peptide |  |  | Kd | 7.28 µM |
| Cacna1c fragment V2071E (Rattus norvegicus) | CACNA1C IQ motif 1644-1668, fluorescein label (UniProt P15381) | fluorescence polarisation |  |  |  | Kd | 230 ± 20 µM |
| B12 (RRP1B 657-758) | PPP1CC 7-323 (Homo sapiens, UniProt P36873) | ITC |  |  |  | Kd | 0.0404 µM |
| INS A and B chains (Homo sapiens) | IGF1R (Homo sapiens, UniProt P08069) | competition binding |  | added: tracer |  | Kd | 0.293 µM |
| B13 (human KIF2C) | PP6C (human) | co-immunoprecipitation, IP-MS | CYB5R4 knockout cells | concentration not given | reference: CYB5R4 knockout over parental | log2 fold change | -1.03 |
| VASP EVH1 domain (Dictyostelium discoideum) | ABI3 peptide (Homo sapiens) | BLI |  |  |  | Kd | > 100 µM |
| B14 (Cacng2 203-323) | DLG4 fragment, pS73 (Homo sapiens) | ITC |  |  |  | Kd | 0.9 µM |

A few entries again:
| Substance | tested on | assay | test system | conditions | scale | endpoint | result |
| --- | --- | --- | --- | --- | --- | --- | --- |
| KLLMIIHDRREFAKFEKEKMNAKWDTQENPIYKSPINNFKNPNYGRKAGL (ITGB1 752-801 (Homo sapiens, UniProt P05556-5); sequence looked up) | Tln2 312-408 Q407K (Mus musculus, UniProt Q71LX4) | NMR titration |  |  |  | Kd | 39 µM |
| B5 | PP6C (human) | co-immunoprecipitation, IP-MS | CYB5R4 knockout cells | concentration not given | reference: CYB5R4 knockout over parental | log2 fold change | -1.93 |
| TLN1 head domain | ITGB3 residues 720-750, FAM label | fluorescence polarization |  |  |  | Kd | 10 µM |
| B6 (Pigr 19-135) | Igha/Jchain CH2-CH3 with J chain P136A/Y135A (Mus musculus) | SPR |  |  |  | Kd | 1.73 µM |
